Published values collected from several papers.
“And” joins repeats or separate records; there may be more than shown. ± marks the error that the study gave.

COc1cc2c(cc1O)C(CCc1ccc(Cl)cc1)N([11CH3])CC2 (stereo not shown)  peak brain radioactivity (PET; Sprague-Dawley rat, male, brain; intravenous, 20.5 MBq, no carrier added): 0.7 %ID/mL
O=C(O)/C=C\c1ccc2occc2c1O[C@@H]1O[C@H](CO)[C@@H](O)[C@H](O)[C@H]1O  accuracy (post-procedure stability; rat plasma; 8 ng/mL, 1 h, room temperature): 99.1%
Cc1ccc(N(C)C2(C)CN(C)C2)cc1C(=O)N[C@H](C)c1cc(-c2cnn(C)c2)nc2ccccc12  viability (Vero E6; 250 µM): 0.18% and 0% and 0.541%
CC1(C)C(=O)N(c2ccc(C#N)c(C(F)(F)F)c2)C(=S)N1c1ccc(C(N)=O)c(F)c1  AUC(0-t) (human, male, plasma; oral, 40 mg, single dose, fasting): 68000 ± 9560 ng·h/mL
C[C@H](O)[C@@H](NC(=O)[C@H]1CCCN1C(=O)[C@@H](CCCCN)NC(=O)[C@@H](CO)NC(=O)[C@@H](Cc1ccc(O)cc1)NC(=O)[C@@H](CC(N)=O)NC(=O)CCOCCOCCOCCNC(=O)CN1CCN(CC(=O)O)CCN(CC(=O)O)CCN(CC(=O)O)CC1)C(=O)N[C@H](CC(=O)O)C(=O)N[C@H](CCCNC(=N)N)C(=O)N[C@H](CCC(N)=O)C(=O)N[C@H](Cc1ccc(O)cc1)C(=O)N[C@H](Cc1c[nH]cn1)C(=O)N[C@H](Cc1ccccc1)C(N)=O [gallium-68 labelled]  tissue uptake (BALB/c nude mice U-87 MG tumour, bone; intravenous, 1.85 MBq, 0.08333 h, radiolabelled): 2.18 ± 0.11 %ID/g
N#[11C]c1ccc(-c2csc(NN=C3CCCC3)n2)cc1  peak radioactivity uptake (dynamic PET/CT; C57BL/6 mouse, lung; intravenous, dose not given, 1.0 min): 0.99 SUV
O=C1NC2(CC2)COc2ncc(F)cc2[C@H]2COCCN2c2ccn3ncc1c3n2  organ-to-brain weight ratio (Sprague-Dawley rat, male, heart; oral, 20 mg/kg/day, 4 weeks, end of treatment): 87.9 ± 18.4%
CCn1ccc(-c2cc([C@@H](C)NC(=O)c3cc(N4CC5CCC(C4)N5C)ccc3C)c3ccccc3n2)n1  viability (Vero E6; 125 µM): 1.14% and -0.142% and -0.997%
CC[C@H](C)[C@H](NC(=O)[C@H](CCCCN)NC(=O)CNC(=O)[C@H](CC(C)C)NC(=O)[C@H](Cc1ccccc1)NC(=O)[C@H](CCCCN)NC(=O)[C@H](CO)NC(=O)[C@H](Cc1ccccc1)NC(=O)[C@H](Cc1c[nH]c2ccccc12)NC(=O)[C@H](CCC(N)=O)NC(=O)[C@@H](NC(=O)[C@H](Cc1ccccc1)NC(=O)CCCCCNC(=O)CN1CCN(CC(=O)O)CCN(CC(=O)O)CCN(CC(=O)O)CC1)C(C)C)C(=O)N[C@@H](CCC(=O)O)C(=O)N1CCC[C@H]1C(=O)N[C@@H](CC(=O)O)C(=O)N[C@H](C(=O)N[C@@H](CO)C(=O)N[C@@H](CCC(N)=O)C(=O)N[C@H](C(=O)N[C@@H](CCC(N)=O)C(=O)N[C@@H](CC(=O)O)C(=O)N1CCC[C@H]1C(=O)N[C@@H](CC(N)=O)C(=O)N[C@@H](CC(=O)O)C(=O)N[C@@H](CCC(N)=O)C(=O)N[C@@H](Cc1ccc(O)cc1)C(=O)N[C@@H](CCC(=O)O)C(=O)N1CCC[C@H]1C(=O)N[C@@H](Cc1ccccc1)C(=O)O)C(C)C)C(C)C [copper-64 labelled]  tissue uptake (C57BL/6 mice, blood; with: LPS 0.1 mg/kg intratracheal): 0.71 ± 0.07 %ID/g
CC[C@H](C)[C@H](NC(=O)[C@H](C)NC(=O)CNC(=O)[C@H](Cc1c[nH]cn1)NC(=O)[C@@H](NC(=O)[C@H](Cc1ccccc1)NC(=O)[C@H](CCCCN)NC(=O)CNC(=O)[C@H](C)NC(=O)[C@H](CCCCN)NC(=O)[C@H](Cc1ccccc1)NC(=O)[C@@H](NC(=O)[C@H](Cc1c[nH]cn1)NC(=O)[C@H](CCCCN)NC(=O)[C@H](Cc1ccccc1)NC(=O)[C@@H](NC(=O)[C@H](CO)NC(=O)CNC(=O)[C@H](Cc1c[nH]c2ccccc12)NC(=O)CNC(=O)[C@H](C)N)[C@@H](C)CC)[C@@H](C)CC)[C@@H](C)CC)C(=O)N[C@@H](CCC(N)=O)C(=O)N[C@@H](C)C(=O)N[C@@H](Cc1c[nH]cn1)C(=O)N[C@@H](CC(N)=O)C(=O)N[C@@H](CC(=O)O)C(N)=O  acute toxic concentration (zebrafish embryos 4 hpf, E3 medium; 1 h): 25 µM
CC(C)[C@H](NC(=O)[C@@H](NC(=O)[C@H](CCCNC(=N)N)NC(=O)[C@H](CCCNC(=N)N)NC(=O)[C@H](CCCNC(=N)N)NC(=O)[C@H](CCC(N)=O)NC(=O)[C@H](CCCNC(=N)N)NC(=O)[C@H](CCCNC(=N)N)NC(=O)[C@H](CCCCN)NC(=O)[C@H](CCCCN)NC(=O)[C@H](CCCNC(=N)N)NC(=O)CN)[C@@H](C)O)C(=O)N[C@H](C(=O)N[C@@H](CO)C(=O)N1CCC[C@H]1C(=O)O)[C@@H](C)O  kidney weight (ICR mouse, female, right kidney; intranasal, 20 mg/kg daily, 4 weeks): 0.211 ± 0.037 g
CC(C)C[C@H](NC(=O)[C@H](C)NC(=O)[C@H](Cc1cn(CCc2ccc(O)c(C=O)c2)nn1)NC(=O)[C@H](Cc1ccccc1)NC(=O)CCNC(=S)Nc1ccc2c(c1)C(=O)OC21c2ccc(O)cc2Oc2cc(O)ccc21)C(=O)N[C@@H](CC(=O)O)C(=O)N[C@@H](Cc1c[nH]c2ccccc12)C(=O)N[C@@H](CO)C(=O)N[C@@H](Cc1c[nH]c2ccccc12)C(=O)N[C@@H](CC(C)C)C(=O)N[C@@H](CCC(N)=O)C(=O)N[C@H](C(=O)N[C@@H](CCC(=O)O)C(N)=O)[C@@H](C)O  hydrodynamic diameter (dynamic light scattering; PBS/DMSO; 125 nM): 316 ± 18.4 nm
COc1cnc2cccc(N3CCc4c(cc(Cn5ccnc5)cc4-c4cn(C)nc4C(F)(F)F)C3=O)c2c1  body weight (CD-1 mice; intraperitoneal, 50 mg/kg once daily, day 2): 28.2 ± 0.7 g

Some of these lines once more:
COc1cc2c(cc1O)C(CCc1ccc(Cl)cc1)N([11CH3])CC2 (stereo not shown)  peak brain radioactivity (PET; Sprague-Dawley rat, male, brain; intravenous, 20.5 MBq, no carrier added): 0.7 %ID/mL
